{"data": "Results collected from several papers", "note": "Each line is one published result; not all experiments were run side by side. ± gives the spread as reported."}
{"SMILES": "COc1ccc(C(=O)CCc2cc(C(CCc3ccc(O)cc3OC)c3ccc(O)cc3)c(O)cc2OC)cc1 (racemic)", "system": "human blood", "conditions": "10 µM, added: A23187", "quantity": "20-OH-LTB4 level", "value": "579 ± 264 pg/mL"}
{"SMILES": "Cc1ncsc1-c1ccc(C(C)NC(=O)C2CC(O)CN2C(=O)C(NC(=O)CCCCCCCCCCN2CCCC(Nc3ncc(Cl)c(Nc4ccccc4S(=O)(=O)C(C)C)n3)C2)C(C)(C)C)cc1 (stereo not shown)", "tested on": "22Rv1", "test": "RNA-seq, item: TRIM56 mRNA", "conditions": "concentration not given", "scale": "baseline: DMSO", "quantity": "log2 fold change", "value": -1.63}
{"SMILES": "CCCCNCCO.O=C(O)C(Cl)Cl", "tested on": "Eleusine indica", "conditions": "15 mg/mL, 21 days, post-emergence, greenhouse", "quantity": "herbicidal inhibition", "value": "0%"}
{"SMILES": "CNS(=O)(=O)Nc1nccc(Cc2c(C)c3ccc(Oc4ncccc4F)cc3oc2=O)c1F", "tested on": "COV318", "test": "cell viability", "conditions": "7 days", "quantity": "IC50", "value": "> 1000 nM"}
{"SMILES": "COc1cc(O)ccc1CCC(c1ccc(O)cc1)c1cc2c(c(C)c1O)OC(c1ccc(O)cc1)CC2 (mixture of isomers)", "system": "human blood", "conditions": "30 µM, added: A23187", "quantity": "DHA level", "value": "114000 ± 38400 pg/mL"}
{"SMILES": "CN1CCC[C@]1(C)/C=C/S(=O)(=O)NC(=O)Nc1c2c(cc3c1CCC3)CCC2", "system": "human, whole blood ex vivo", "conditions": "25 mg single dose, 12 h, single ascending dose, added: LPS and ATP", "quantity": "IL-18 inhibition", "value": "96.6%"}
{"SMILES": "C[n+]1cccc2cc(/C=N/NC(=O)c3ccc4ccc(C(=O)N/N=C/c5ccc6c(ccc[n+]6C)c5)nc4n3)ccc21", "tested on": "myc22 MYC G4-DNA parallel", "test": "FRET melting", "conditions": "1 µM, K1 buffer, DNA 0.2 µM", "quantity": "ΔTm", "value": "20 ± 0.2 °C"}
{"SMILES": "CN1CCCNC(=O)c2cccc(c2)C(=O)NCCCN(C)CCCNc2cccc3c2C(=O)c2cccc(c2C3=O)NCCC1", "tested on": "SAS", "test": "RNA-seq, item: MAST4-AS1 mRNA", "conditions": "1 µM, 6 h", "scale": "baseline: untreated cells", "quantity": "log2 fold change", "value": 1.72}
{"SMILES": "C[n+]1cc(/C=N/NC(=O)c2ccc3ccc4ccc(C(=O)N/N=C/c5cc6ccccc6[n+](C)c5)nc4c3n2)cc2ccccc21", "tested on": "myc22 MYC G4-DNA parallel", "test": "FRET melting", "conditions": "1 µM, K1 buffer, DNA 0.2 µM, added: ds26 10 µM", "quantity": "ΔTm", "value": "11.7 ± 3.8 °C"}
{"SMILES": "C=CC(=O)Nc1cccc(Cn2ncc3cnc(Nc4cnn(CCOC)c4)nc32)c1", "tested on": "FLT4 human", "test": "binding, KINOMEscan", "conditions": "100 nM", "scale": "lower = stronger binding", "quantity": "percent of control", "value": "26%"}
{"SMILES": "C[n+]1ccc(/C=N/NC(=O)c2cccc(C(=O)N/N=C/c3cc[n+](C)c4ccccc34)c2)c2ccccc21", "tested on": "myc22 MYC G4-DNA parallel", "test": "FRET melting", "conditions": "1 µM, K1 buffer, DNA 0.2 µM", "quantity": "ΔTm", "value": "12.5 ± 0.3 °C"}
{"SMILES": "C=CC(=O)N1[C@@H](c2ccc3c(c2)OCO3)c2[nH]c3ccccc3c2C[C@H]1C(=O)N1CCN(C)CC1", "tested on": "human cyclin E1 N112C-3xFLAG:CDK2", "test": "co-IP with TMT proteomics, item: HNRNPH1", "conditions": "concentration not given, P31943", "scale": "baseline: wild type DMSO", "quantity": "relative co-enrichment", "value": "108%"}
{"SMILES": "COC1CN([C@H]2CC[C@H]([C@@]3(C)Oc4c(Cl)cc(C(=O)NCc5c(SC)cc(C)[nH]c5=O)c(C)c4O3)CC2)C1", "test": "RNA-seq, item: RORB mouse homolog", "system": "mouse, HT-1376 xenograft, whole blood", "conditions": "dose not given", "scale": "baseline: vehicle", "quantity": "log2 fold change", "value": 2.3}
{"SMILES": "CCN(CC)CC(=O)Nc1cccc(-n2cc(-c3ccc4ccc(-c5cn(-c6cccc(NC(=O)CN(CC)CC)c6)nn5)cc4c3)nn2)c1", "tested on": "RCC4", "test": "PCR angiogenesis array, item: NRP1", "conditions": "5 x IC50, 6 h, normoxia", "scale": "baseline: untreated", "quantity": "fold regulation", "value": -1.43}
{"SMILES": "O=C(N/N=C/c1cc[n+](CC2CC2)c2ccccc12)c1cccc(C(=O)N/N=C/c2cc[n+](CC3CC3)c3ccccc23)n1", "tested on": "myc22 MYC G4-DNA parallel", "test": "FRET melting", "conditions": "1 µM, K1 buffer, DNA 0.2 µM, added: ds26 10 µM", "quantity": "ΔTm", "value": "24.6 ± 0.5 °C"}
{"SMILES": "Nc1ncc(-c2cc(-c3cnn(CC(F)(F)F)c3)ncc2F)nc1C(=O)NC1CNCC(F)C1 (stereo not shown)", "tested on": "NEK2", "test": "KINOMEscan", "conditions": "1 µM", "scale": "baseline: DMSO control", "quantity": "remaining binding", "value": "86%"}
{"SMILES": "O=C(N/N=C/c1cc[n+](Cc2ccccc2)c2ccccc12)N/N=C/c1cc[n+](Cc2ccccc2)c2ccccc12", "tested on": "myc22 MYC G4-DNA parallel", "test": "FRET melting", "conditions": "1 µM, K1 buffer, DNA 0.2 µM, added: ds26 10 µM", "quantity": "ΔTm", "value": "5.6 ± 0.1 °C"}
{"SMILES": "Cc1cccc2c1N(C(=O)n1ccnn1)CC2", "tested on": "Arabidopsis thaliana", "system": "wild type", "conditions": "0.3 µM, seedlings", "quantity": "hypocotyl length", "value": "10.8 mm"}
{"SMILES": "C[n+]1ccc(/C=N/NC(=O)c2cccc(C(=O)N/N=C/c3cc[n+](C)cc3)c2)cc1", "tested on": "myc22 MYC G4-DNA parallel", "test": "FRET melting", "conditions": "1 µM, K1 buffer, DNA 0.2 µM, added: ds26 10 µM", "quantity": "ΔTm", "value": "0 ± 1.2 °C"}
{"SMILES": "C=C(NC(=O)c1csc(-c2nc3c(cc2O)-c2nc(cs2)C(=O)NC(C(C)O)C(=O)NC(=C(C)OC)c2nc(cs2)C(=O)NC2c4nc(cs4)C(=O)NC(COC(=O)c4c5c6c(cccc6n4O)COC(=O)C(OC4CC(C)(O)C(N(C)C)C(C)O4)C2OC5)c2nc-3cs2)n1)C(N)=O (stereo not shown)", "tested on": "Streptococcus pneumoniae", "system": "-25, immunocompromised mice, lung infection, lung", "conditions": "2 mg/kg/day three times daily, 24 h post-dose", "quantity": "bacterial load", "value": "3.98 log CFU/g"}
{"SMILES": "CC[n+]1cccc2cc(/C=N/NC(=O)N/N=C/c3ccc4c(ccc[n+]4CC)c3)ccc21", "tested on": "myc22 MYC G4-DNA parallel", "test": "FRET melting", "conditions": "1 µM, K1 buffer, DNA 0.2 µM, added: ds26 10 µM", "quantity": "ΔTm", "value": "4.3 ± 0.3 °C"}
{"SMILES": "CC(=O)[O-].O.O.O.O.[Mn+2].[O-]c1ccc(Br)cc1C=NCCN1CCOCC1", "test": "superoxide scavenging", "conditions": "120 µM", "quantity": "inhibition", "value": "19.6%"}
{"note": "Repeated from above:"}
{"SMILES": "C[n+]1cccc2cc(/C=N/NC(=O)c3ccc4ccc(C(=O)N/N=C/c5ccc6c(ccc[n+]6C)c5)nc4n3)ccc21", "tested on": "myc22 MYC G4-DNA parallel", "test": "FRET melting", "conditions": "1 µM, K1 buffer, DNA 0.2 µM", "quantity": "ΔTm", "value": "20 ± 0.2 °C"}
{"SMILES": "CN1CCC[C@]1(C)/C=C/S(=O)(=O)NC(=O)Nc1c2c(cc3c1CCC3)CCC2", "system": "human, whole blood ex vivo", "conditions": "25 mg single dose, 12 h, single ascending dose, added: LPS and ATP", "quantity": "IL-18 inhibition", "value": "96.6%"}
{"SMILES": "COC1CN([C@H]2CC[C@H]([C@@]3(C)Oc4c(Cl)cc(C(=O)NCc5c(SC)cc(C)[nH]c5=O)c(C)c4O3)CC2)C1", "test": "RNA-seq, item: RORB mouse homolog", "system": "mouse, HT-1376 xenograft, whole blood", "conditions": "dose not given", "scale": "baseline: vehicle", "quantity": "log2 fold change", "value": 2.3}
